Measured values of several laboratories.
Numbered parts are unrelated; each lists some results of a single study.

Set 1
Target: PABPC1L2, full length, GST fusion (mouse, UniProt A0ABA7IW68)
Method: RNAcompete
Molecule type: RNA
Sample: in vitro
Concentration: 20 nM
Notes: 7-mer, probes averaged, single round
Reference: mean of 7-mers
Reading: higher = stronger binding
Target sequence (chain): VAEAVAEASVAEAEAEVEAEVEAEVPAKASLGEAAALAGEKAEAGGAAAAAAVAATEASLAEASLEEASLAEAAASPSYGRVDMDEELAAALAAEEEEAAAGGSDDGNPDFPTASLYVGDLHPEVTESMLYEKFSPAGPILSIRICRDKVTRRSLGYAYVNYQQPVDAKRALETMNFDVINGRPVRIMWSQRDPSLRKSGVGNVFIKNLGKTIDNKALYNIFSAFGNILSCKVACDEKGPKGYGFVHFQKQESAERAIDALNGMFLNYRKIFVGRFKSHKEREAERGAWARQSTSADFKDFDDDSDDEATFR
Sequence | 7-mer Z-score
UAGCAAC | -0.0953
GAGGUGU | 0.0787
UCAACCC | -0.249
AAGCCCU | -0.217
CGCGAUC | -0.257
CGCCAAC | -0.257
GCGGUCG | -0.0754
UGUUCUU | -0.42
UCCUCGG | -0.46
AGGGUAU | 0.12
UAACUGA | -0.162
CAUGGGG | 0.249
CGACUUC | -0.202
GCUCCGU | -0.278
CAAAGGG | 0.374
GCUGCAU | -0.124
UUAAUUG | -0.231

Set 2
Target: Prothrombin, mature alpha-thrombin (F2, Homo sapiens, UniProt P00734)
Method: aptamer microarray, sandwich
Molecule type: DNA with 2'F-ANA
Sample: in vitro
Concentration: 200 nM
Notes: whole 15-mer aptamer, many near background
With: Cy3 exosite-II aptamer, 400 nM
Reading: higher = stronger binding
Sequence: GGTTGGTGTGGTTGG
Modification | mean fluorescence intensity
2'F-ANA at 2 3 5 9 10 11 15 | 55.7 a.u.
2'F-ANA at 2 4 6 12 | 546 a.u.
2'F-ANA at 1 5 8 9 10 13 14 | 47.7 a.u.
2'F-ANA at 1 2 4 5 7 9 10 11 15 | 53 a.u.
2'F-ANA at 4 5 6 11 12 13 14 | 133 a.u.
2'F-ANA at 2 3 4 5 6 8 9 10 12 | 74.1 a.u.
2'F-ANA at 1 4 5 6 7 8 9 11 13 15 | 65.3 a.u.
2'F-ANA at 3 7 8 11 12 13 14 | 1040 a.u.
2'F-ANA at 1 4 5 6 8 9 11 13 14 15 | 46.2 a.u.
2'F-ANA at 2 3 4 9 10 14 15 | 180 a.u.
2'F-ANA at 4 9 12 13 14 15 | 95.4 a.u.
2'F-ANA at 1 3 8 9 12 13 | 434 a.u.
2'F-ANA at 1 4 7 10 12 14 | 46.6 a.u.
2'F-ANA at 1 3 4 5 8 9 13 14 15 | 149 a.u.
2'F-ANA at 1 3 4 6 7 8 10 11 12 14 | 54.4 a.u.
2'F-ANA at 2 4 5 6 7 10 11 14 | 47.5 a.u.
2'F-ANA at 1 2 3 4 5 11 | 53.8 a.u.
2'F-ANA at 1 2 5 6 10 11 14 | 42.5 a.u.
2'F-ANA at 2 4 5 8 11 12 14 15 | 47.8 a.u.
2'F-ANA at 1 3 4 6 8 9 12 14 15 | 81.6 a.u.

Set 3
Target: RNA binding protein fox-1 homolog 2, RRM domain, GST-SBP tag (RBFOX2, Homo sapiens, UniProt O43251-10, residues 100-194)
Method: RNA Bind-n-Seq
Molecule type: RNA
Sample: in vitro
Concentration: 365 nM
Notes: natural RNA segment, single round, ends assumed
Reference: no-protein control
Reading: higher = stronger binding
Shared flanks, not repeated: GGGAGUUCUACAGUCCGACGAUC … UGGAAUUCUCGGGUGCCAA
Construct (chain): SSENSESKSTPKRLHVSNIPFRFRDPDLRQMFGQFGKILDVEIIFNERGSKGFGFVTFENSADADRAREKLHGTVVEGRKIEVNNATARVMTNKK
Sequence | RBNS enrichment (R)
CACACUGGACAGGUGACUGUAUGGUAGAGACUGUGAUCUGGGAACUUUUUGCUGUACAAAUCUGUUUAAAAAAAAAAAAAAGUAACUCAUUGAAUUAACUUGCAGUGGUG | 0.983
AAACUUUUAUUUCAUAAAUUUUAAAAUAAUUAUUUUUGAUUAUGAAUACUAGUCCAAAUUUAAUAUUUGACAGAAUUCGUAUUGCUUGCUAUAACAAGGAUAGUUUAUAG | 1.63
CUGUCUCAAAGAACAUUAAACUCUUCUGGAACUGGCCCUUGACAGCCUGGGACCAGGGAAACUUUUCACACCAUCUUGGUCUUUGUCACAGGAAUCUAAAACCAGCCAUU | 0.356
AAAGCUCCCAGCAUAUUUAGAUAAUAGGGCAGGGGAAGCACCCUCUUUCUUUCUAGACUGGAUUAUGCUCACAUGCUCCCUUGCCCUGACAUUUUUGUAAAUUCUGUGCC | 1.04
UGCCUGAUGGCUUAGCCUGGAGACCUCCUCAUUGCCAAAGUUGUUCCCAUGCCACAAAGCAUCUCUCCACCCCCUUUUCAAGGAAUGCAGUUCUACAAACUGAUCUCCUU | 0.448
CUUCAGGGCAGCCAAAGCCAGCCCUUUUCUCCUACUGCCCCCAGGAGAAAUAGCACUCUUCUCCCUUCCCCCAGAUGGCAGGGCUCUGGCCUCCCUACACCUCAUACCCU | 0.511
GUGUACGUAUCAUUUCUAAUUUUAAGUUAUUUUAAAAAAAUUCAUCAUAUGAAUGUUCUUGGUUCCCAUUGUGACGAUUAUUUAUUUCUGUAAAAUUUGUUUAGAAGUAC | 2.37
UGUCUGCCGAGUCGUCUGUGUAAAAGCCUGUGCUUAGUCUUCUCUGGAAAGAACUGAGGCCAGACGAUUUCUGUGUUUGUCUCUUUGGCUUUUGUGUUAUAAGGAGGCAG | 2.07
CUCCAAGCCCGGCAGGCAUCCCCUGCCUGGAAGUGACCACAGUGAGAGCUGCCUUAUAUUCCUACAUUCCAGGCCAGAACCAGCACAGGACUGAACACAUCCCUGGUUGU | 0.307
AAAGCACGGCUUACUUCAUCUGCUCCUUACACACUAAAAUGCUCUUAGUGUGCUCAACUACAGAGAUAGCCGCUGCUGAGUGAUGUAGAUUUUCUACUUGAAUAUUUUUA | 0.609
AAGCAAGACUGGGACCUUAGAAAUCAUUGUAGAAACACAGUUUUGAAAGAAAAAUACCAUGUCUCUAAGCCAACUUUAAUUGCUUAAAAGACAUUUUUAUUUAGUUGAAA | 0.391
ACAAUGUUCCAGUUCUUUUUGUACUGUGGAAUCAACAUGACACCAUCUCAUUGAUUAUUGACACCUUGAGGUCUGAAGGAUUCCACACUCGAGGAUGCUGACCUAAGCCA | 0.254

Set 4
Target: Sal-like protein 4, full length isoform B (SALL4, Homo sapiens, UniProt Q9UJQ4-2, residues 1-616)
Method: universal PBM
Molecule type: double-stranded DNA, one strand shown
Sample: in vitro
Concentration: not given
Notes: 8-mer, flanks averaged, mean of replicates
Reading: higher = stronger binding
Target sequence (chain): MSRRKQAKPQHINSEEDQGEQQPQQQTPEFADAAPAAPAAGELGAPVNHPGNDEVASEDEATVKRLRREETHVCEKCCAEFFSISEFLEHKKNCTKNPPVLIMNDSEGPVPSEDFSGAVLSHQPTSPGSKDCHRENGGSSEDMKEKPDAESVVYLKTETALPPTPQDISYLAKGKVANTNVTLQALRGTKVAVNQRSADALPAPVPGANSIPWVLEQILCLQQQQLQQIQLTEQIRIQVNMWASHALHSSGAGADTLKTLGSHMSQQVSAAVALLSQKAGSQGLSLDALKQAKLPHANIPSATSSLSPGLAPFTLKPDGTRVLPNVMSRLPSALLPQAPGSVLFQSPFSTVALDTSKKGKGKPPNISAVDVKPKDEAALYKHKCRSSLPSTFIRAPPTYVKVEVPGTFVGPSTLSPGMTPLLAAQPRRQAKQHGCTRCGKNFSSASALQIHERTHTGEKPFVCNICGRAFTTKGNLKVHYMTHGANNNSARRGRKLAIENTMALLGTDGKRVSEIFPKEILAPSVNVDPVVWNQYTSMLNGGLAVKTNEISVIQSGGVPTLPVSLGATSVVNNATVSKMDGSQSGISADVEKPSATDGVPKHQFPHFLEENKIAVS
Sequence | E-score
ATTTCTAG | 0.175
GGGGGAAC | -0.357
AAGGACCG | -0.0751
ATAAGGGA | 0.148
TGAGTACA | 0.112
GTTTCCCA | -0.0407
GTAAGCGA | 0.0246
GACTCCTA | -0.2
GGGGAGAA | -0.125
CTGCCTCA | -0.167
CAGAAACG | 0.0196
ACTGTACG | 0.0404
GGCGACTA | -0.059
AATCAGCC | -0.189
CGTTAGAC | 0.00399
CCGAACGG | -0.333
AACGGATA | 0.052
AGGCTGAT | -0.0258
CTTCATCA | 0.122
AAGTGTTA | 0.225
AGAAGTGC | -0.245
ATGTCAAA | 0.269

Set 5
Target: Interferon regulatory factor 5, full length, phosphomimetic (IRF5, Homo sapiens, UniProt Q13568-2, residues 1-514, K96S/S451D/S453D/S456D/S462D)
Method: protein-binding microarray
Molecule type: double-stranded DNA, one strand shown
Sample: in vitro
Concentration: 250 nM
Notes: 60-bp whole probe
With: salmon DNA 0.4 mg/ml
Reference: random background probes
Reading: higher = stronger binding
Shared flanks, not repeated: GCCTAGCAC … GTCTTGATTCGCTTGACGCTGCTG
Sequence | log fluorescence
GACGGACTTGGGTTTCGGGACGTGCTA | 1.94 z-score
TTAGGTTTCCTATCCCTTTAGTGCTAG | 0.859 z-score
GACGATATCGGGTATCGCGACGTGCTA | 1.95 z-score
GACTAACTGAGTCTCGAGACGTGCTAG | -0.0962 z-score
TTAGATATCGGGTATCAATTAGTGCTA | 3.14 z-score
AGGTTCTACTCCGTTAGTTGGTGCTAG | -0.00779 z-score
TCACTGTTCTTTTCAGTACTGTGCTAG | 1.07 z-score
TTAAGTTTCGGTATCGGTTAGTGCTAG | 11.8 z-score
GACGGTTTCCTAGTGCTGACGTGCTAG | -0.143 z-score
TTAGAACTGAGGTTCGATTAGTGCTAG | 0.0725 z-score
TTGGGTTTCGGTTTCGGTTAGTGCTAG | 11.4 z-score
GACGGTTTGCTTTTCCTGACGTGCTAG | 0.258 z-score
GACGGTCTCCTTTTCCTAACGTGCTAG | 0.116 z-score
TTAGGTTTCGAGTTTCGGTTAGTGCTA | 10.2 z-score
ATGAGACTGTCACATCCCTGGTGCTAG | -0.271 z-score
TCAGACTTTGGTTTGTAACTGTGCTAG | 0.164 z-score
TTAGGTCTCGGTTTCGGTCAGTGCTAG | 7.88 z-score
TTAGGTATCCTTTTACTTTAGTGCTAG | 1.06 z-score
AGGAGTATTTATCTGCAAAGGTGCTAG | 0.203 z-score
GTCGATATCAGTCTCGAGACGTGCTAG | 2.35 z-score
CTCTTTTTGCTTTCTTTATGGTGCTAG | 2.57 z-score
ACCCTGCCTAAAGCTAGTTTGTGCTAG | -0.543 z-score
TTGCTTTCCTTTATGTACTCGTGCTAG | 2.03 z-score
GACGGTCTCAGACTGGGGACGTGCTAG | -0.394 z-score
TCAGAGTCCTGTTTGATACTGTGCTAG | -0.511 z-score

Set 6
Target: Histone acetyltransferase KAT6A, winged helix 1, GST fusion (KAT6A, Homo sapiens, UniProt Q92794, residues 1-85)
Method: protein binding microarray
Molecule type: double-stranded DNA, one strand shown
Sample: in vitro
Concentration: not given
Notes: 8-mer, flanks averaged, mean of 2 arrays, mostly near background
Reference: not given
Reading: higher = stronger binding
Target sequence (chain): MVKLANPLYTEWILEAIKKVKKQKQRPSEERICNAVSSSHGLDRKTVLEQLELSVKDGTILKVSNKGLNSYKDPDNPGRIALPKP
Sequence | E-score
CTACGAGA | -0.272
ATACTCCA | -0.0682
CACAGCTC | -0.173
AATCCTAT | -0.0896
AACTCTTA | -0.129
CGAGAACG | 0.102
GGTCAACC | 0.0977
GGCCGAAA | 0.144
CAGGCTTA | -0.139
ATCACTCA | -0.0225
AACAATAA | -0.0809
GGGACTAA | -0.0712
AAGCTCAG | -0.213
AGACGACT | -0.129
ATCGCATC | 0.102
CATTACTC | -0.0543
CTCAACAG | -0.0675
ACGTCATC | 0.0314
TACCAAAA | -0.106
AGTTTCAT | -0.0825
ATCACCTG | -0.225
CACTATAG | -0.138
AGTCGTAA | -0.121
ACTTTATC | -0.16
GCGGTAAC | 0.366

Repeated from above (set 5):
Sequence | log fluorescence
GACGGTTTCCTAGTGCTGACGTGCTAG | -0.143 z-score
TCAGAGTCCTGTTTGATACTGTGCTAG | -0.511 z-score
TTAGAACTGAGGTTCGATTAGTGCTAG | 0.0725 z-score
TCAGACTTTGGTTTGTAACTGTGCTAG | 0.164 z-score
AGGAGTATTTATCTGCAAAGGTGCTAG | 0.203 z-score
TTAAGTTTCGGTATCGGTTAGTGCTAG | 11.8 z-score
GACGATATCGGGTATCGCGACGTGCTA | 1.95 z-score
TTAGATATCGGGTATCAATTAGTGCTA | 3.14 z-score
AGGTTCTACTCCGTTAGTTGGTGCTAG | -0.00779 z-score
TTAGGTCTCGGTTTCGGTCAGTGCTAG | 7.88 z-score
CTCTTTTTGCTTTCTTTATGGTGCTAG | 2.57 z-score
TTAGGTTTCGAGTTTCGGTTAGTGCTA | 10.2 z-score
TTGCTTTCCTTTATGTACTCGTGCTAG | 2.03 z-score
GACGGTTTGCTTTTCCTGACGTGCTAG | 0.258 z-score
TTAGGTTTCCTATCCCTTTAGTGCTAG | 0.859 z-score
